Results from different studies.
Each line is one published result; not all experiments were run side by side. Values joined by “and” are separate records of one study, mostly repeats; a detail may differ. ± marks the error that the study gave. Converted amounts (≈) assume the structure as drawn.

| SMILES | target or system | test | test system | conditions | scale | endpoint | result |
| --- | --- | --- | --- | --- | --- | --- | --- |
| COC1OC(C)C(O)C(OC2OC(C)C(O)C(OC3OC(C)C(O)C(OC4OC(C)C(O)C(OC5OC(C)C(O)C(OC6OC(C)C(O)C(OC7OC(C)C(O)C(OC8OC(C)C(O)C(OC9OC(C)C(O)C(OS(=O)(=O)O)C9OS(=O)(=O)O)C8OS(=O)(=O)O)C7OS(=O)(=O)O)C6OS(=O)(=O)O)C5OS(=O)(=O)O)C4OS(=O)(=O)O)C3OS(=O)(=O)O)C2OS(=O)(=O)O)C1OS(=O)(=O)O (stereo not drawn) | – | – | human plasma | 128 µg/mL | – | activated partial thromboplastin time | 40.9 ± 0.9 s |
| C=CC(=O)N1[C@@H](c2ccc3c(c2)OCO3)c2[nH]c3ccccc3c2C[C@H]1C(=O)N1CCN(C)CC1 | human cyclin E1 N112C-3xFLAG:CDK2 | co-IP with TMT proteomics, item: DDX3X | – | concentration not given, O00571 | relative to: wild type DMSO | relative co-enrichment | 97% |
| COC1OC(C)C(OS(=O)(=O)O)C(OC2OC(C)C(OS(=O)(=O)O)C(OC3OC(C)C(OS(=O)(=O)O)C(OC4OC(C)C(OS(=O)(=O)O)C(OC5OC(C)C(OS(=O)(=O)O)C(OC6OC(C)C(OS(=O)(=O)O)C(OS(=O)(=O)O)C6OS(=O)(=O)O)C5OS(=O)(=O)O)C4OS(=O)(=O)O)C3OS(=O)(=O)O)C2OS(=O)(=O)O)C1OS(=O)(=O)O (stereo not drawn) | – | – | human plasma | 32 µg/mL | – | activated partial thromboplastin time | 81.8 s and 78.8 s |
| F[C@@H]1[C@H](c2ccc(-c3ccc(N4CCCC4)nc3)cc2)[C@H](F)[C@H](F)C[C@@H]1F | – | hepatocyte stability | cryopreserved human hepatocytes | 1 µM | – | hepatic clearance | 7.1 mL/min/kg |
| CO[C@@H]1[C@@H](OC(N)=O)[C@@H](O)[C@H](Oc2ccc3c(O)c(NC(=O)c4ccc(O)c(CC=C(C)C)c4)c(=O)oc3c2C)OC1(C)C | DLD-1 BRCA2-/- | – | – | 200 µM, replicate B | relative to: untreated | colony survival | 0.312% |
| CN1CCCNC(=O)c2cccc(c2)C(=O)NCCCN(C)CCCNc2cccc3c2C(=O)c2cccc(c2C3=O)NCCC1 | SAS | RNA-Seq, item: SLF2 mRNA | – | 1 µM, 6 h | relative to: untreated cells | log2 fold change | 0.768 |
| C=CC(=O)Nc1cccc(Cn2ncc3cnc(Nc4cnn(CCOC)c4)nc32)c1 | MERTK human | binding, KINOMEscan | – | 100 nM | lower = stronger binding | percent of control | 100% |
| C[n+]1ccc(/C=N/NC(=O)c2cncc(C(=O)N/N=C/c3cc[n+](C)cc3)n2)cc1 | 22CTA telomeric G4-DNA antiparallel | FRET melting | – | 1 µM, K10 buffer, DNA 0.2 µM, together with: ds26 10 µM | – | ΔTm | 2.9 ± 0.3 °C |
| COC1OC(C)C(OC2OC(C)C(OS(=O)(=O)O)C(OC3OC(C)C(OC4OC(C)C(OS(=O)(=O)O)C(OC5OC(C)C(OC6OC(C)C(OS(=O)(=O)O)C(OC7OC(C)C(OC8OC(C)C(OS(=O)(=O)O)C(OC9OC(C)C(OC%10OC(C)C(OS(=O)(=O)O)C(OC%11OC(C)C(OC%12OC(C)C(OS(=O)(=O)O)C(OS(=O)(=O)O)C%12O)C(OS(=O)(=O)O)C%11O)C%10O)C(OS(=O)(=O)O)C9O)C8O)C(OS(=O)(=O)O)C7O)C6O)C(OS(=O)(=O)O)C5O)C4O)C(OS(=O)(=O)O)C3O)C2O)C(OS(=O)(=O)O)C1O (stereo not drawn) | – | – | human plasma | 128 µg/mL | – | activated partial thromboplastin time | 47.7 ± 1 s |
| CC[n+]1cccc2cc(/C=N/NC(=O)c3cncc(C(=O)N/N=C/c4ccc5c(ccc[n+]5CC)c4)n3)ccc21 | 22CTA telomeric G4-DNA antiparallel | FRET melting | – | 1 µM, K10 buffer, DNA 0.2 µM | – | ΔTm | 14.4 ± 0.3 °C |
| CCN(CC)CC(=O)Nc1cccc(-n2cc(-c3ccc4ccc(-c5cn(-c6cccc(NC(=O)CN(CC)CC)c6)nn5)cc4c3)nn2)c1 | RCC4 | PCR angiogenesis array, item: ID1 | – | 5 x IC50, 4 h, normoxia | relative to: untreated | fold regulation | 1.33 |
| Nc1ncc(-c2cc(-c3cnn(CC(F)(F)F)c3)ncc2F)nc1C(=O)NC1CNCC(F)C1 (stereo not drawn) | EPHB2 | KINOMEscan | – | 1 µM | relative to: DMSO control | remaining binding | 95% |
| O=C(N/N=C/c1cc[n+](Cc2ccccc2)c2ccccc12)C(=O)N/N=C/c1cc[n+](Cc2ccccc2)c2ccccc12 | 22CTA telomeric G4-DNA antiparallel | FRET melting | – | 1 µM, K10 buffer, DNA 0.2 µM | – | ΔTm | 8.9 ± 0.9 °C |
| CNS(=O)(=O)Nc1nccc(Cc2c(C)c3ccc(Oc4ncccc4F)cc3oc2=O)c1F | NCI-H196 | cell viability | – | 7 days | – | IC50 | > 1000 nM |
| C[n+]1ccc(/C=N/NC(=O)c2ccc3ccc(C(=O)N/N=C/c4cc[n+](C)cc4)nc3n2)cc1 | 22CTA telomeric G4-DNA antiparallel | FRET melting | – | 1 µM, K10 buffer, DNA 0.2 µM, together with: ds26 10 µM | – | ΔTm | 4.9 ± 0.5 °C |
| N#CCNC(=O)c1ccc(C2CCCCC2)cc1 | – | hepatocyte stability | cryopreserved human hepatocytes | 1 µM | – | hepatic clearance | 18 mL/min/kg |
| C[n+]1ccc(/C=N/NC(=O)c2ccc3ccc(C(=O)N/N=C/c4cc[n+](C)c5ccccc45)nc3n2)c2ccccc21 | 22CTA telomeric G4-DNA antiparallel | FRET melting | – | 1 µM, K10 buffer, DNA 0.2 µM | – | ΔTm | 20.6 ± 0.3 °C |
| c1ccc(CN2CCOCCOCCN(CCCCCCCCN3CCOCCOCCN(CCCCCCCCN4CCOCCOCCN(Cc5ccccc5)CCOCCOCC4)CCOCCOCC3)CCOCCOCC2)cc1 | Klebsiella pneumoniae | checkerboard | ATCC BAA-2146 | quarter MIC, together with: tetracycline | – | FIC index | 0.5 |
| O=C(N/N=C/c1cc[n+](CC2CC2)c2ccccc12)c1ccc2ccc3ccc(C(=O)N/N=C/c4cc[n+](CC5CC5)c5ccccc45)nc3c2n1 | 22CTA telomeric G4-DNA antiparallel | FRET melting | – | 1 µM, K10 buffer, DNA 0.2 µM | – | ΔTm | 22.3 ± 0.7 °C |
| Cc1ncsc1-c1ccc(C(C)NC(=O)C2CC(O)CN2C(=O)C(NC(=O)CCCCCCCCCCN2CCCC(Nc3ncc(Cl)c(Nc4ccccc4S(=O)(=O)C(C)C)n3)C2)C(C)(C)C)cc1 (stereo not drawn) | 22Rv1 | RNA-seq, item: TASOR mRNA | – | concentration not given | relative to: DMSO | log2 fold change | -1.7 |
| COc1ccccc1-c1ccncc1C(=O)Nc1nnc(OCc2ccc(Cl)cc2)s1 | Brca1 Δ11/Δ11 MEFs sgGFP | – | – | 1.25 µM | – | colony count | 45 and 62 and 66 |
| O=c1c(Oc2ccccc2)c(C(F)(F)F)oc2c(O)c(O)ccc12 | ROC1-CUL1 E3 subcomplex | Cdc34-ubiquitin discharge | – | 30 µM | relative to: input | Cdc34b-ubiquitin remaining | 9.8% |
| c1ccc(-c2n[nH]cc2-c2ccnc3ccccc23)nc1 | CKA1 (Candida albicans) | kinase binding, MIB/MS competition | Candida albicans lysate | 10 µM | relative to: DMSO | log2 fold change | -0.31 |
| C[n+]1cc(/C=N/NC(=O)c2cccc(C(=O)N/N=C/c3cc4ccccc4[n+](C)c3)c2)cc2ccccc21 | 22CTA telomeric G4-DNA antiparallel | FRET melting | – | 1 µM, K10 buffer, DNA 0.2 µM | – | ΔTm | 8.1 ± 0.6 °C |
| C=C(NC(=O)c1csc(-c2nc3c(cc2O)-c2nc(cs2)C(=O)NC(C(C)O)C(=O)NC(=C(C)OC)c2nc(cs2)C(=O)NC2c4nc(cs4)C(=O)NC(COC(=O)c4c5c6c(cccc6n4O)COC(=O)C(OC4CC(C)(O)C(N(C)C)C(C)O4)C2OC5)c2nc-3cs2)n1)C(N)=O (stereo not drawn) | Staphylococcus epidermidis | – | methicillin-resistant, 10 isolates | pH 5.5 | – | MIC50 | 7.8 ng/mL (≈ 5.43 nM) |
| O=C(N/N=C/c1ccc(C[n+]2ccccc2)cc1)c1cccc(C(=O)N/N=C/c2ccc(C[n+]3ccccc3)cc2)n1 | 22CTA telomeric G4-DNA antiparallel | FRET melting | – | 1 µM, K10 buffer, DNA 0.2 µM, together with: ds26 10 µM | – | ΔTm | 12.2 ± 0.6 °C |
| COC1CN([C@H]2CC[C@H]([C@@]3(C)Oc4c(Cl)cc(C(=O)NCc5c(SC)cc(C)[nH]c5=O)c(C)c4O3)CC2)C1 | – | RNA-seq, item: S100A10 mouse homolog | mouse, HT-1376 xenograft, whole blood | dose not given | relative to: vehicle | log2 fold change | 0.541 |

Some of these lines once more:
| SMILES | target or system | test | test system | conditions | scale | endpoint | result |
| --- | --- | --- | --- | --- | --- | --- | --- |
| O=C(N/N=C/c1cc[n+](CC2CC2)c2ccccc12)c1ccc2ccc3ccc(C(=O)N/N=C/c4cc[n+](CC5CC5)c5ccccc45)nc3c2n1 | 22CTA telomeric G4-DNA antiparallel | FRET melting | – | 1 µM, K10 buffer, DNA 0.2 µM | – | ΔTm | 22.3 ± 0.7 °C |
| C[n+]1ccc(/C=N/NC(=O)c2ccc3ccc(C(=O)N/N=C/c4cc[n+](C)cc4)nc3n2)cc1 | 22CTA telomeric G4-DNA antiparallel | FRET melting | – | 1 µM, K10 buffer, DNA 0.2 µM, together with: ds26 10 µM | – | ΔTm | 4.9 ± 0.5 °C |
| C[n+]1ccc(/C=N/NC(=O)c2cncc(C(=O)N/N=C/c3cc[n+](C)cc3)n2)cc1 | 22CTA telomeric G4-DNA antiparallel | FRET melting | – | 1 µM, K10 buffer, DNA 0.2 µM, together with: ds26 10 µM | – | ΔTm | 2.9 ± 0.3 °C |
| COC1OC(C)C(OS(=O)(=O)O)C(OC2OC(C)C(OS(=O)(=O)O)C(OC3OC(C)C(OS(=O)(=O)O)C(OC4OC(C)C(OS(=O)(=O)O)C(OC5OC(C)C(OS(=O)(=O)O)C(OC6OC(C)C(OS(=O)(=O)O)C(OS(=O)(=O)O)C6OS(=O)(=O)O)C5OS(=O)(=O)O)C4OS(=O)(=O)O)C3OS(=O)(=O)O)C2OS(=O)(=O)O)C1OS(=O)(=O)O (stereo not drawn) | – | – | human plasma | 32 µg/mL | – | activated partial thromboplastin time | 81.8 s and 78.8 s |
